# Measurements of several laboratories.
# Protocols differ between the studies behind these lines. ± gives the spread as reported.
# Organism: Severe acute respiratory syndrome coronavirus 2
SMILES,assay,system,setting,EC50 [µM]
CCOC(=O)/C=C/[C@H](C[C@@H]1CCNC1=O)NC(=O)[C@H](CC(C)C)NC(=O)[C@@H](NC(=O)OCc1ccccc1)[C@@H](C)OC(C)(C)C,"viral replication, inhibitor",Vero C1008,72 h,3.02
CC(C)[C@H](NC(=O)OCc1ccccc1)C(=O)N[C@@H](CC1CCCCC1)C(=O)N[C@H](C=O)C[C@@H]1CCNC1=O,"viral replication, plaque reduction","Vero E6, USA-WA1/2020",3 days,0.073 ± 0.007
O=C(O[C@@H]1Cc2c(O)cc(O)cc2O[C@H]1c1cc(O)c(O)c(O)c1)c1cc(O)c(O)c(O)c1,antiviral activity,Huh-7,96 h,> 100
C[C@@H](OC(C)(C)C)[C@H](NC(=O)OCc1ccccc1)C(=O)N[C@@H](Cc1ccccc1)C(=O)N[C@H](C=O)C[C@@H]1CCNC1=O,"viral replication, plaque reduction","Vero E6, USA-WA1/2020",3 days,0.17 ± 0.02
O=C(c1ccc([N+](=O)[O-])c(-n2ccnc2)c1)N(c1cccc(Cl)c1)c1nc2ccccc2s1,"viral replication, inhibitor",A549-ACE2,,7.2
CC(C)C[C@H](NC(=O)[C@@H](NC(=O)OCc1ccccc1)C(C)C)C(=O)N[C@H](C=O)C[C@@H]1CCNC1=O,"viral replication, plaque reduction","Vero E6, USA-WA1/2020",3 days,> 5
CN=c1nc(-c2ccccc2)n(-c2ccccc2)s1,antiviral activity,Huh-7,96 h,> 100
CN(C)C/C=C/C(=O)Nc1ccc(C(=O)Nc2cccc(Nc3cc(-c4c[nH]c5ccccc45)ncn3)c2)cc1,"viral replication, inhibitor, luciferase",Calu-3,,0.2
Brc1c(Br)c(Br)c2[nH]nnc2c1Br,antiviral activity,Huh-7,96 h,> 100
Cc1ccc(NCCN(C)CCNc2ccnc3cc(Cl)ccc23)c2c(=O)c3ccccc3sc12,"viral entry, inhibitor",HEK-293T,"48 h, pseudovirus",0.87
O=C1C=CC(=O)C=C1,antiviral activity,Huh-7,96 h,> 100
CC(C)CC(NC(=O)OCc1ccccc1)C(=O)NC(CC1CCNC1=O)C(O)S(=O)(=O)O (stereo not drawn),"viral replication, inhibitor",A549-ACE2,,14.7

# A few entries again:
SMILES,assay,system,setting,EC50 [µM]
Brc1c(Br)c(Br)c2[nH]nnc2c1Br,antiviral activity,Huh-7,96 h,> 100
